Measured values pooled from the literature.
Compare with care: the assays were run in different laboratories. ± gives the spread as reported.

Structure (SMILES)	target or system	test	system	conditions	scale	quantity	value
CSCC[C@@H]1NC(=O)[C@H](CC(=O)O)NC(=O)CNC(=O)[C@H](CCCNC(=N)N)NC(=O)[C@H](C)NC(=O)[C@H](CCC(=O)O)NC(=O)[C@H](CCCNC(=N)N)NC(=O)[C@@H]2CSSC[C@@H]3NC(=O)[C@H](CO)NC(=O)[C@H]([C@@H](C)O)NC(=O)[C@@H]4CCCN4C(=O)[C@H](C)NC(=O)[C@H](Cc4c[nH]c5ccccc45)NC(=O)[C@H](CC(=O)O)NC(=O)CNC(=O)[C@H](CCCNC(=N)N)NC(=O)CNC(=O)[C@H](CCC(N)=O)NC(=O)[C@@H]4CCCN4C(=O)[C@@H](NC(=O)CNC(=O)C(C)F)CSSC[C@H](NC(=O)CNC(=O)[C@H](C)NC(=O)[C@H](CC(C)C)NC(=O)[C@H](CSSC[C@@H](C(=O)NCC(N)=O)NC(=O)[C@H]([C@@H](C)O)NC(=O)[C@H](CCCNC(=N)N)NC(=O)[C@@H]4CCCN4C1=O)NC(=O)[C@H](CC(=O)O)NC(=O)[C@H](CO)NC(=O)[C@H](CC(=O)O)NC(=O)[C@H](CCC(N)=O)NC(=O)[C@H](CO)NC3=O)C(=O)N[C@@H](C(C)C)C(=O)N2 (some centres unmarked) [fluorine-18 labelled]	–	–	nude mice, U-87 MG xenograft, blood	intravenous, 2.5 h, added: cyclo(RGDyK) 330 µg coinjected	–	tissue uptake	0.3 ± 0.09 %ID/g
CN1CC[C@]23c4c5ccc(O)c4O[C@H]2[C@@H](O[C@@H]2O[C@H](C(=O)O)[C@@H](O)[C@H](O)[C@H]2O)C=C[C@H]3[C@H]1C5	MDCK-MDR1	–	–	100 µg/mL, 100 min	–	Papp	2.35 ×10⁻⁶ cm/s
C[C@@H]1CCO[C@H]2Cn3cc(C(=O)NCc4ccc(F)cc4F)c(=O)c(O)c3C(=O)N12	hCMEC/D3	–	–	10 µM, 1 h, 37 °C	–	intracellular accumulation	250 ± 45.5 pmol/mg protein
C[C@H]1CNCCc2ccc(Cl)cc21	–	–	Sprague-Dawley rat, male, plasma	subcutaneous, 3 mg/kg, 240 min	–	plasma concentration	12.3 ± 0.48 ng/mL
CN[C@@](C)(C[18F])C(=O)O	SK-OV-3 tumour model	–	host not given, liver	15 min, tumour-bearing	–	tracer uptake	4.7 %ID/g
CC(=O)N[C@H](CCCCNC(=O)C(C)F)C(=O)N[C@@H](CS)C(=O)N[C@@H](CS)C(=O)N[C@@H](CCC(=O)O)C(=O)N[C@@H](Cc1c[nH]cn1)C(=O)N[C@H](Cc1ccccc1)C(=O)N[C@@H](CCCNC(=N)N)C(=O)N[C@@H](Cc1c[nH]c2ccccc12)C(=O)N[C@@H](CS)C(=O)N[C@@H](CCCNC(=N)N)C(=O)N1CCC[C@H]1C(=O)N[C@H](C(N)=O)C(C)C (some centres unmarked) [fluorine-18 labelled]	–	–	nude mice, A375M tumour, kidney	intravenous, 2 h	–	kidney uptake	6.59 ± 1.53 %ID/g
CN1COCN(Cc2cnc(Cl)s2)/C1=N\[N+](=O)[O-]	Folsomia candida	survival, OECD 232	LUFA 2.2 soil	28 days	–	LC50	0.32 mg/kg dry soil
[123I]c1cncc(OC[C@@H]2CCN2)c1	–	SPECT	human, thalamus	intravenous bolus plus infusion, 7.7 mCi	relative to: plasma	tissue/plasma ratio	118
